Assay results of several laboratories.
Parts stem from different laboratories: compare values within a part only.

Set 1
Target: RING finger protein unkempt homolog, zinc fingers 1-6, GST-SBP tag (UNK, Homo sapiens, UniProt Q9C0B0, residues 30-357)
Chain of UniProt Q9C0B0 (30-357, looked up): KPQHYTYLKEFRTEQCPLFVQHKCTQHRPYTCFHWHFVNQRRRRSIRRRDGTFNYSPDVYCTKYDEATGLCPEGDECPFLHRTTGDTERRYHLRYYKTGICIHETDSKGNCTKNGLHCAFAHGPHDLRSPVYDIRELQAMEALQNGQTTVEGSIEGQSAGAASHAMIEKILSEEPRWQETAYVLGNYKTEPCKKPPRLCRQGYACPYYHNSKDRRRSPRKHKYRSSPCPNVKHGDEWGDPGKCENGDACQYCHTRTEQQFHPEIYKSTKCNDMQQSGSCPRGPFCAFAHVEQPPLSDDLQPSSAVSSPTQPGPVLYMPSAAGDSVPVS
Method: RNA Bind-n-Seq
Molecule type: RNA
Matrix: in vitro
Concentration: not given
Setting: RNA with constant flanks, human-mouse chimeric sites, ends assumed
Reference: input RNA pool
Reading: higher = stronger binding
All sequences stand within: GGGAGUUCUACAGUCCGACGAUC … CAACAGAGGAUUGAGCAUCA
Oligonucleotide | bound/input enrichment
AAAGCCCAAGUAUUUUGAAAAAAUUCAAACAGAUUUGACAAGGGUAGCCAGCUUGGAGUCUAGCAACUUGCCAAUGUGUUUACCAAUCUGGGGGCUUUGUUUUUCUUUCUUCUUUCAAAU | 0.313 ratio
AACGUGGAACUAAGUUCCUUGGCCCGGCUUCCCAGCUUAAAUAAACUCCGGAAGUUGGAACUUAGUGACAAUAUAAUUUCUGGAGGCUUGGAAGUCCUGGCAGAGAAAUGUCCAAAUCUU | 0.164 ratio
GUUGCCAGGUUCCGGUGCCGUUGGGCUCGGUUCUCUCAGUGCUACGUUGUCUCUACGCUCUCAAUCCGCCAUCCAACAAACAUGGAUCAGGUAAUGCAGUUUGUGGAGCCCAGCCGGCAG | 0.112 ratio
GCAGGAUCUUCUAAAUACCAGUGGGACAUUAUGAAAUCCCUUGGGCUCUCUGAUGACGAGAUAGUAAAGUUUUCUGAAGCAGAGCACUGGCUUGAUUAUUUCCCACCACUGGCCGUUCAG | 0.201 ratio
AUAGAUGAAAUUGAUGUGGACCAGGAAGGAAUUGCUGAAAUGAUCCUGGAUGAAAAUGCUAUAGCUCAAGUUCCACGCCCUGGCACAUCUUUGAAGCUCCCUGGCACUAACCAAACAGGA | 0.301 ratio
CUGGCCUUCUGAGCAUCAGGGGCCUCCUUUCGUAUAGUCACUGCUUCUGCUACGGAUACUUUCAGCUGCAACUCCCUACUGGGUGGGGCACCCAUUUCAGGCAGAAGGUUUUGGUACCCU | 0.189 ratio
GAGCGUCUUGCCCGCACUGGGAUCAUCGUGACCACUAGUGAGGCUGUCCUCCUACAGCUGGUGGCUGACAAAGACCAUCCAAAAUUCAAGGAAAUUCAGAACCUAAUUAAGGCGAGUGCC | 0.179 ratio
UGUAGUUUCUUGAUUUAUCAUUUUUCUCUUUUCUUUCUUUCCUUUAGGAAAAGCCUAAAGAUUAGACUGUAAGAAAAGAAAAUAGAAUGUUUCGAAGACCUGUGUUACAGGUAUUUCGUC | 0.469 ratio
CUGUGCGACUAUUCUCCCUGGAGUGGCUGGAGUUCCCGCCGGAGCGCGGCCAGACUAAUUUUAGAAAAUGCCAAGUAGGAAGUUUGUUGAGGGUGAAGUGGUCAGAGGCCGAUGGCCUGG | 5.25 ratio
AGCACAACCCCAGCAAAGCUCAGGAACCCUUGUACAAGUGAACAAAACUGCACCAGCCCAUUUAGCUACAAAAAUGUGCUCAGUCUUACUGACAGAGGAGAGUUUUUCAAUGAACUUGUU | 1.83 ratio
GCAGGAUCUUCUAAGUACCAGUGGGACAUUAUGAAAUCCCUUGGGCUGUCUGAUGAAGACAUAGUGAAGUUUUCUGAAGCAGAACAUUGGCUUGAUUAUUUCCCACCACUGGCCGUUCAG | 0.166 ratio

Set 2
Target: Hepatocyte nuclear factor 3-alpha (Foxa1, Mus musculus, UniProt P35582, residues 1-468, full length assumed)
Method: EMSA with sequencing
Molecule type: double-stranded DNA, one strand shown
Matrix: in vitro
Concentration: 10 and 20 nM
Setting: whole designed probe, mean of two concentrations, ends assumed
Reference: negative control set to 0
Reading: higher = stronger binding
All sequences stand within: GTGAGCGGTGCCCATTGATGGGGAAC … TTTCACTGGGATCGTGGGGAC
Target sequence (chain): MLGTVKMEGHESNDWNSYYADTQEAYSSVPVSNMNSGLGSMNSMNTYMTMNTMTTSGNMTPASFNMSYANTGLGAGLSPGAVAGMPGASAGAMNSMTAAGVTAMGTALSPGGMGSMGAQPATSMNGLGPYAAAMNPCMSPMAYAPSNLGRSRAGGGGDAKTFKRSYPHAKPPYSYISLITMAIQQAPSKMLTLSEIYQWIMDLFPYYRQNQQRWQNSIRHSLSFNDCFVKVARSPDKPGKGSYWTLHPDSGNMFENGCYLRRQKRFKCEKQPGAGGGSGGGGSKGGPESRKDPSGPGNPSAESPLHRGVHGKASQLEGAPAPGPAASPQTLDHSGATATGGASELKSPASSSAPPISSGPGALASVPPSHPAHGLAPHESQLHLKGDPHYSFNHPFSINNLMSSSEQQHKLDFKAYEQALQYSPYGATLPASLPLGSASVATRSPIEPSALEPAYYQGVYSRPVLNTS
Oligonucleotide | normalised bound fraction
TTAACTGATTGGAACAGTTACTTGGAAACATTAAATTGGTGGCAGAAAAAGTGAAACAATTATAAATGCAATGATCAAAAACAGAAAATAAAAAGTAAACATGAATTTAAGACAATGATCTAATCAAGAAGCAATGAATTCCTGAGTGAATGAGTATAGTGGGAAAAAACAGAGAGGAGTAAATATGGGAGCT | 0.392 ratio
TGATGAGAAACATGATAATTATTTAGTCTGAAAGGATCTTCTCCAATAATTTTTTTTTGTCGTGATACATTCCTGACTTCTCCACCCCCAAATGCAATCTAACCTAAATTGAGGGAAATTCTATGCAATACCTAACCATTATTCATCAAATGTACTCTGGAGTACAGTGACACAATCATGGTTCACTGTAACC | -0.0615 ratio
CTAATCTCTCTTGGCATCAGGACTTGGTCTTTTGCTGTAGGAGCCACACCAATGGATACCACTCAACCAAAGTGACCCTGGGACAGAGCCAGTATAATCTCGGTCCCTCGTGAGTCAAGCGTCTGGGATAAGTGAACAAACACTGGGCTGAAAACCTGGGACTGGCTGGTTGTTTAAGAGCTATCACCTGCTC | 0.117 ratio
TTACCACATTTCTTACATGCATAGGGTTTCTCTCCAGTATGAGTTCTTTCATGTTCACGAAGATAACTTGAATAATTGAAGGCTTTATCACAATGTTTACATTTATATGTTTTCTCTCCAGTGTAAGTGCTCTGAGGCATTTGAAATACACTAGGAAAATCAAAAGGCTTCTCATACACTGGACCCTTATAAG | 0.407 ratio
AATAGCGCTCTGGAGAGAAGGTCCGTTCCATGCCCAGGTAGGGAGGAGGGGGAAAAATGATACTGGCGGGCAGGGAGAGGGGAAGGCAAGAAAGCAAACAGGCGTGGAAGAGCTGAGTCGACTAATCTGACTTCTTTTGTCTGTAGACGGGGGAATCCAGGGTGACTGGGTATAATCTGTATTATCTAGGTCC | 0.0563 ratio
ATCTTCCCCCTCTTCCTTGCCCCACCAGCTCACCTTCCCGGGTCAAAGTAAACAAGTGTTTACTTTGAAGCCGGCATTCGTTAACCCTCTTCTGGCGCAAACTGCCAAAGTAAACAGATCTAACATGGTCCTTTGGCGACGCCAGGCTCCGGGAGAGCAAAGCACCGTGTCAGGGCCATGATCCGGGGTGGCC | 0.533 ratio

Set 3
Substance: PhoQ, residues 284 288 289 292 302 303 SSLVEF
Method: Sort-seq
Item: YFP reporter
Matrix: E. coli
Setting: PhoQ-PhoP variant library
With: 10 µM Mg2+
Reference: high Mg2+ state
Reading: higher = stronger signaling
target | fold induction
PhoP, residues 12 14 15 18 19 VGHWL (Escherichia coli, UniProt P23836) | 7.67
PhoP, residues 12 14 15 18 19 NFFVT (Escherichia coli, UniProt P23836) | 6.26
PhoP, residues 12 14 15 18 19 LHHYF (Escherichia coli, UniProt P23836) | 15
PhoP, residues 12 14 15 18 19 TPWTL (Escherichia coli, UniProt P23836) | 1.74

Set 4
Target: RNA binding protein fox-1 homolog 2, RRM domain, GST-SBP tag (RBFOX2, Homo sapiens, UniProt O43251-10, residues 100-194)
Method: RNA Bind-n-Seq
Molecule type: RNA
Matrix: in vitro
Concentration: 365 nM
Setting: natural RNA segment, single round, ends assumed
Reference: no-protein control
Reading: higher = stronger binding
All sequences stand within: GGGAGUUCUACAGUCCGACGAUC … UGGAAUUCUCGGGUGCCAA
Construct (chain): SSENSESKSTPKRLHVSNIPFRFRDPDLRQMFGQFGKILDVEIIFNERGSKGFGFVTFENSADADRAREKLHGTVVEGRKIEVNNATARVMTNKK
Oligonucleotide | RBNS enrichment (R)
UCUAAGAUGUCCCAGGUCCUGGGAAGUUUACUCAAUAAAGCUGGCUUUCCCCUGCCCUCCAUGCUGGUCCUGUGCAGCCCCCAGCCUGCACCACUCAGCAGUGGGGGGCU | 0.348
AAGUAGCCAAAGAAACUCUGUCACUUUGGUAACACCAGAACUUGCCACAUGUAGCUACUACAGCAAGGCUUCUGUGUACUUGCCGGAAACGAAGGGAGGUCCUGCUCACU | 0.244
UCGAUCCGGACCAGGACAUGGAACCGUACUUGCCACCAGUUUAGUGGCUCUUCCAGCCUGCAGGGACAGUAAAGGAAGCCAUGGACACUGGCCCCAAGAACUGAUAAGAC | 0.479
UACACGGCUCUCUAAAGCCCUACAGAGGGUUCAUGUGUUUAGACCUGAGAAAUCAGGACAUGGAAAUCAGAGCAUAUACAUAAGGAACUUAAUUUUAAUGUAAUCAUGUC | 0.651
UAUAUGUGUAAGUAAAGCCUGAAGUGUAGGGGGCCUUUGUUCUUGAAGCAGCCAGGGUCUCCUUGCCCUGGCCUUGGCCUUCCCUAGACUGUGUGGGGCUCAGCAUUGGG | 1.3
AGCUGUGAAAUAAACUCUCCCCAAGGAUGCCAUCUGAUCUCCCCAUCUGCAGCCAGAAGUCACCCCAAUACAGUACUUCUAAGGAGGGGUCAGGUAAAGCAUGAGAGAGA | 5.18
CUUUUCCGGUGCCGUGGUUGGAGUGGGAGCCCACGCCUCGGGAGCUCUGGCCUUGCUCUUUCAAGUCUUGUUUGAAAAAUAAUCCAGUCAGCUGACUUCCAGUACUGUGA | 0.875
AGGUACUGCCCGCGUUUAAAGGAAGUGCCUUGGCUGGGGCAGCAGUGUCAGCUUGGAUAACUGAAAACACCUACAUCCUACAGCAUAAAGAACUGCUGAGCGAGCUACUG | 0.469
UGUAAAUGCAUGAGUUUGGAAACCACCCAUCAAAUAUGAAAGGCUGAUGAGACUGUUAGGAUUGAUAAACAUUUGUUGUUUGAACCCAGCUAUCCAAACUGGGGAAGAAG | 8.46
ACAUGGCAGGUCUGUAGGGGUCAGACCCGAGCAGCCUGGACUUUACAGUUAUGUGAAACUGUCCACAAAAAGUCAUGGCAAUAAUGGUGUAAAGAAAAUAGUUUCUUGGG | 0.409
AUGAGCCUCGGCCAUCUCUCCCUCCUGCCCUCUGCUUGGGGGACUCAGGGCUCCAUUCUGGAGGGCACCACGGUGACCCGGGCCAUCUCAGUAUUGCCUGUGGGGGCCAC | 0.388
AUGACAGAGUUAGCCUGUGGCUAUAGGAGAUCAUGUCAUCCAGACCUUUUUGCCCAUCACAUUAACUUUCCUGGAAUAUUGUGCUGCACAGGUAGACCUGAAUCUGCCCA | 0.618

For quick reference, copied from above (set 2):
Oligonucleotide | normalised bound fraction
AATAGCGCTCTGGAGAGAAGGTCCGTTCCATGCCCAGGTAGGGAGGAGGGGGAAAAATGATACTGGCGGGCAGGGAGAGGGGAAGGCAAGAAAGCAAACAGGCGTGGAAGAGCTGAGTCGACTAATCTGACTTCTTTTGTCTGTAGACGGGGGAATCCAGGGTGACTGGGTATAATCTGTATTATCTAGGTCC | 0.0563 ratio
ATCTTCCCCCTCTTCCTTGCCCCACCAGCTCACCTTCCCGGGTCAAAGTAAACAAGTGTTTACTTTGAAGCCGGCATTCGTTAACCCTCTTCTGGCGCAAACTGCCAAAGTAAACAGATCTAACATGGTCCTTTGGCGACGCCAGGCTCCGGGAGAGCAAAGCACCGTGTCAGGGCCATGATCCGGGGTGGCC | 0.533 ratio
CTAATCTCTCTTGGCATCAGGACTTGGTCTTTTGCTGTAGGAGCCACACCAATGGATACCACTCAACCAAAGTGACCCTGGGACAGAGCCAGTATAATCTCGGTCCCTCGTGAGTCAAGCGTCTGGGATAAGTGAACAAACACTGGGCTGAAAACCTGGGACTGGCTGGTTGTTTAAGAGCTATCACCTGCTC | 0.117 ratio
TGATGAGAAACATGATAATTATTTAGTCTGAAAGGATCTTCTCCAATAATTTTTTTTTGTCGTGATACATTCCTGACTTCTCCACCCCCAAATGCAATCTAACCTAAATTGAGGGAAATTCTATGCAATACCTAACCATTATTCATCAAATGTACTCTGGAGTACAGTGACACAATCATGGTTCACTGTAACC | -0.0615 ratio
TTAACTGATTGGAACAGTTACTTGGAAACATTAAATTGGTGGCAGAAAAAGTGAAACAATTATAAATGCAATGATCAAAAACAGAAAATAAAAAGTAAACATGAATTTAAGACAATGATCTAATCAAGAAGCAATGAATTCCTGAGTGAATGAGTATAGTGGGAAAAAACAGAGAGGAGTAAATATGGGAGCT | 0.392 ratio
